Published values collected from several papers.
Lines come from different studies, so protocols differ.
USP13 ZnF-UBD domain: Ubiquitin carboxyl-terminal hydrolase 13, ZnF-UBD domain (USP13, Homo sapiens, UniProt Q92995)
Chain of UniProt Q92995 (whole entry, looked up): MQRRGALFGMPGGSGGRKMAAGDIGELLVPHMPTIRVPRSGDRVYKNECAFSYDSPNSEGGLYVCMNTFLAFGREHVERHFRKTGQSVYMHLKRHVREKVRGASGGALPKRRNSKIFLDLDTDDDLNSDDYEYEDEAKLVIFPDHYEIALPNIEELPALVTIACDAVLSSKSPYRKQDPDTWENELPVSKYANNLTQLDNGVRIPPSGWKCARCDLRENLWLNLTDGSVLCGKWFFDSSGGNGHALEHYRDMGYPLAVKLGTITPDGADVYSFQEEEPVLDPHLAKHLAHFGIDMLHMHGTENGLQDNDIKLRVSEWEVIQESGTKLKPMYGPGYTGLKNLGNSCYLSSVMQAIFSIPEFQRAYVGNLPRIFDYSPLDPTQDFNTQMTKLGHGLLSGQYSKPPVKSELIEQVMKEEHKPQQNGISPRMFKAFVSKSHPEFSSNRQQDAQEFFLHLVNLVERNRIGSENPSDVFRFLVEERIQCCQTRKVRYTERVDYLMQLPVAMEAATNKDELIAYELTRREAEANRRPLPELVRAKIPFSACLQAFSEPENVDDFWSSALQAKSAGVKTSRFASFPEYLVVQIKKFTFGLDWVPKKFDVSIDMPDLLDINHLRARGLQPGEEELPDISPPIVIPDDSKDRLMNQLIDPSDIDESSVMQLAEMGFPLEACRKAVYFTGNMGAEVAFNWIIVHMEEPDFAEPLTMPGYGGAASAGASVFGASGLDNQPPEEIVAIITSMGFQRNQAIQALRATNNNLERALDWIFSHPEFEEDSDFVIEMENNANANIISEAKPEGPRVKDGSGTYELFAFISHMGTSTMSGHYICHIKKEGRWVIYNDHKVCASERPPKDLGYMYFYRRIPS

SMILES = C[C@H]1C[C@H]2CSC(N)=N[C@@]2(c2nc(NC(=O)c3ccc(OC(F)F)cn3)cs2)CO1; test = refers to: total Aβ; test system = healthy adults, plasma; setting = 540 mg single dose, 48 h post-dose; scale = baseline: placebo; endpoint = percent change from baseline; result = -65.2%
SMILES = COc1cc2cc(-c3ccc(CC(=O)Nc4cc(C(C)(C)C(F)(F)F)no4)cn3)cnc2cc1OC; test = RECIST v1.1; test system = RET-altered advanced solid tumour patients; setting = oral, 100 mg once daily, phase I; endpoint = partial response as best response; result = 67%
SMILES = NC(=O)c1cnc2[nH]ccc2c1N[C@@H]1[C@@H]2CC3C[C@H]1C[C@@](O)(C3)C2; test = flow cytometry, refers to: regulatory T cells; test system = Japanese healthy subjects, peripheral blood; setting = oral, 100 mg twice daily, day 4; endpoint = change from baseline; result = -0.52%
SMILES = c1ccc(-c2n[nH]cc2-c2ccnc3ccccc23)nc1; test = kinase binding, competitor, MIB/MS competition, refers to: IRE1; test system = Candida albicans cell lysate; setting = 100 nM; scale = baseline: DMSO; endpoint = log2 fold change; result = 1.08
SMILES = Cc1sc2ncn(CC(=O)O)c(=O)c2c1C; tested on = USP13 ZnF-UBD domain; endpoint = Kd; result = > 1000 µM
SMILES = OC(CCN1CCCCC1)(c1ccccc1)C1CC2C=CC1C2 (centres unmarked); test = resting-state EEG; test system = healthy elderly humans; setting = oral, 4 mg, eyes closed, LS mean; endpoint = EEG Beta2-power Pz-O1; result = 1 µV²
SMILES = O=C(O)CNC(=O)Cc1ccccc1; test system = ventricular cardiomyocytes, C57BL/6 mouse; setting = dose not given, 0.228 s; endpoint = sarcomere length; result = 1.63 µm
SMILES = Cn1cc(-c2ccc(-c3cncc(Cl)c3N3CCC4(CCNC4=O)CC3)cc2)cn1; tested on = COLO 205; test = gene expression, microarray, refers to: FSCN1 mRNA; setting = concentration not given, 2 h; scale = baseline: untreated cells; endpoint = log2 fold change; result = 2.06
SMILES = CC(C)NCC(O)c1ccc(O)c(O)c1 (centres unmarked); test system = ventricular cardiomyocytes, C57BL/6 mouse; setting = dose not given, 0.192 s; endpoint = sarcomere length; result = 1.49 µm
SMILES = O=C(O)Cn1ccc2ccccc2c1=O; tested on = USP13 ZnF-UBD domain; endpoint = Kd; result = 228 µM
SMILES = N#Cc1ccc2c(c1)[C@H]1CCCN(C(=O)c3ccc4[nH]cnc4c3)[C@H]1C2; test = refers to: androstenedione; test system = human male, Phase II trial; setting = oral, 80 mg once daily, HPA axis, mean; endpoint = change from baseline; result = 2.76 nmol/L
